# Measurements from different studies.
# ± gives the spread as reported.
Structure (SMILES),assay,test system,setting,scale,measurement,value
Cn1c(=O)oc2ccc(-c3ccc(CC(C#N)NC(=O)C4CNCCCO4)c(F)c3)cc21 (centres unmarked),refers to: skin exfoliation,human,"80 mg single dose, fasted",,subjects with TEAE,0%
COC1CN([C@H]2CC[C@H]([C@@]3(C)Oc4c(Cl)cc(C(=O)NCc5c(SC)cc(C)[nH]c5=O)c(C)c4O3)CC2)C1,,"human, advanced tumours, phase I","oral, dose not given, once daily dosing",,tolerability,not toxic
NC[C@@H](C(=O)Nc1ccc(-c2cn[nH]c2)cc1)c1ccccc1,metabolic stability,"dog, liver microsomes",,,microsomal CLint,7.82 µL/min/mg
NC(=O)CN(Cc1ccccc1)C(=O)CN(CCOc1cc(-c2ccccn2)nc(-c2ccccn2)c1)C(=O)CNCc1ccccn1,UV-Vis,acetate buffer,"100 µM, up to 72 h, pH 4.0, 37 °C",,chemical stability,stable
"CNC(=O)N[C@]1(C)CCC[C@@]2(C)C3CC[C@@]4(C)C[C@]3(CCC21)CC4=O (single isomer, unassigned)",,"rat, plasma",-80 °C,,stability duration,101 days
OCc1[nH]nc2c1N=C(c1ccccc1Cl)c1cnc(N3CCOCC3)cc1N2,,"human, feces","oral, 10 mg, 0 to 192 h",reference: dose,excretion in feces,3%
C=C(c1cc(F)c(C(=O)O)c(F)c1)c1cc2c(cc1C)C(C)(C)CCC2(C)C,,"Sprague-Dawley rat, male, plasma","oral, 100 mg/kg, 9 h, sesame oil vehicle",,LDL level,6 ± 1.2 mg/dL
C[Si]1(C[C@@H](CN)CC(=O)O)CCCC1,neuromuscular coordination,Wistar rat male,"oral, 300 mg/kg, 3 h",,performance time,180 s
O=C(NCCCN(CCCCN(CCCNC(=O)c1cccc(=O)n1[O-])C(=O)c1cccc(=O)n1[O-])C(=O)c1cccc(=O)n1[O-])c1cccc(=O)n1[O-].[89Zr+4],radio-TLC,PBS,"1 d, pH 7.4, 37 °C, together with: Gd^3+ 10-fold excess",,intact complex,97.8 ± 3.1%
O=C(O)[C@@H]1C[C@@H](O)CN1C(=O)[C@@H]1CCCN1,potentiometric titration,water,"25 °C, 0.15 mol/dm3 NaCl",,pKa1,2.02
C=CCc1ccc(O)c(-c2cc(CC=C)ccc2OCCCCCCCCCC[P+](c2ccccc2)(c2ccccc2)c2ccccc2)c1,,"C57BL/6 mouse, non-tumour-bearing","dose not given, day 31",,serum AST,320 ± 37 IU/L
COCC1CN(C2CCN(c3cc(OC)c(Nc4ncc(Br)c(Nc5ccc6c(c5P(C)(C)=O)OCCO6)n4)cc3C)CC2)C1,,human patients,"oral, dose not given",,grade ≥3 treatment-related proteinuria,3.7%
C=C(c1ccc(C(=O)O)c(F)c1)c1cc2c(cc1C)C(C)(C)C=CC2(C)C,,"Sprague-Dawley rat, male, plasma","oral, 100 mg/kg, 1 h, sesame oil vehicle",,LDL level,35 ± 2.6 mg/dL
COc1ccc2cc(-c3ccc(-c4ccc(C)cn4)nc3)oc2c1,TCSPC,CHCl3,,,radiative decay rate constant,0.45 ns⁻¹
COc1cc(NC(C)=O)c2c(c1O)-c1c(OC)c(OC)cc3c1C(C2)N(C)CC3 (centres unmarked),,rat kidney homogenate,"50 µg/mL, 40 d, -20 °C, long-term storage",,remaining compound,88.4 ± 1.9%
CC(C)[C@H](NC(=O)CNC(=O)[C@H](CCC(N)=O)NC(=O)[C@H](C)N)C(=O)O,LC-MS/MS,"human, male, plasma","intravenous, 30 mg/kg three times daily, day 1, first dose, 10 min infusion, geometric mean",,Cmax,5820 ng/mL
CCCC(CCC)NC(=O)c1ccc(OC2OC(C(=O)O)C(O)C(O)C2O)c(O)c1 (centres unmarked),,"male Sprague-Dawley rats, plasma","oral, 50 mg/kg of parent drug",reference: 50 over 20 mg/kg dose,AUC(0-last) ratio,1.86
COc1cc(/C=C/C(O)=C/C(=O)/C=C/c2ccc(O[C@@H]3O[C@H](C(=O)O)[C@@H](O)[C@H](O)[C@H]3O)c(OC)c2)ccc1O,,"mouse, tumour","90 mg/kg, iv versus ip",,free curcumin level,no effect
COc1cc2ncnc(Oc3ccc4c(C(N)=O)c(C)oc4c3)c2cc1OC,refers to: AUC0-t,"human, moderate renal impairment",oral,reference: normal renal function,decrease in exposure,~28%
CCn1c(=O)n(CCO)c(=O)c2c1nc(/C=C/c1ccc(OC)c(OC)c1)n2C,,"healthy humans, plasma","oral, 40 mg, together with: rifampin 600 mg/day",reference: without rifampin,change in Cmax,14%
NC12CNCCNCC(NCc3ccc(CNC(=O)CCCC(=O)NCc4ccc(-c5nncnn5)cc4)cc3)(CNCCNC1)CNCCNC2.[64Cu+2],OLINDA dosimetry,gallbladder wall,"pretargeting, 120-h interval",,mean absorbed dose,0.0341 rad/mCi
O=c1nc(NO)ccn1[C@@H]1O[C@H](CO)[C@@H](O)[C@H]1O,"Western blot, refers to: CYP2B6","rat, arthritis model, liver","oral, 80 mg/kg twice daily, 5 days",reference: control group,protein level,> 1.5 fold
CCCC[C@@H]1NC(=O)[C@@H](NC(=O)[C@H](CCC(=O)O)NC(=O)CNC(=O)CN2CCN(CC(=O)O)CCN(CC(=O)O)CCN(CC(=O)O)CC2)CCCCNC(=O)C[C@@H](C(N)=O)NC(=O)[C@H](C(C)C)NC(=O)[C@@H]2CCCN2C(=O)[C@H](CCCNC(=N)N)NC(=O)CNC(=O)[C@H](Cc2c[nH]c3ccccc23)NC(=O)[C@H](CCCNC(=N)N)NC(=O)[C@@H](Cc2ccccc2)NC(=O)[C@H](Cc2c[nH]cn2)NC(=O)[C@H](CCC(=O)O)NC1=O [gallium-67 labelled],,"C57 mice with B16/F1 melanoma, muscle","intravenous, 0.037 MBq, 2 h",,tissue uptake,0.04 ± 0.02 %ID/g
N=C(N)NCCC[C@@H]1NC(=O)[C@H](Cc2c[nH]c3ccccc23)NC(=O)[C@@H](CC2CCCCC2)NC(=O)[C@@H]2CCCN2C(=O)[C@@H](NC(=O)CCc2ccccc2)CCCNC1=O,two-compartment model,"C57BL/6J mice, plasma","intravenous, 1 mg/kg",,beta rate constant,0.04 min⁻¹
[2H]C([2H])([2H])NC(=O)c1ccc(N2C(=S)N(c3ccc(C#N)c(C(F)(F)F)c3)C(=O)C2(C)C)cc1F,,"human, male","oral, 160 mg, single dose, fed",,MRT,195 ± 49.2 h
COc1cc(OC)cc(C2=C3C(C)=C(I)C(C)=[N+]3[B-](F)(F)n3c(/C=C/c4c[nH]c5ccccc45)c(I)c(C)c32)c1,,DMSO,,,absorption maximum,636 nm
CC(C)C(=O)NC1CC=C(c2cc3c(Nc4cc5ncsc5cc4F)ncnc3s2)CC1 (racemic),,human liver microsomes,1 µM,,intrinsic clearance,26 mL/min/g protein
C[Si](C)(C[C@@H](CN)CC(=O)O)C1CC1,neuromuscular coordination,Wistar rat male,"oral, 100 mg/kg, 3 h",,performance time,180 s
Oc1ccc2ccccc2c1/N=N/c1ccccc1,,"Sprague-Dawley rats both sexes, whole blood","oral, 50 mg/kg",,MRT(0-inf),1.21 h
CC(=O)[CH](C(C)=O)[Pt-2]1([S+](C)C)[O]C(C)=CC(C)=[O+]1 (centres unmarked),refers to: platinum,"rat, whole blood","iv, dose not given, 1 h",,remaining in circulation,40%
COc1cc2c(cc1OC)CN(CCCCn1ccc3cc(OCC[18F])ccc31)C2,,"male CD-1 mouse, muscle","intravenous, 280 kBq, 2 h",,tracer uptake,1.86 %ID/g
Cc1ccc(OCC(=O)N(Cc2cccs2)c2ccn[nH]2)cc1,,"Sprague-Dawley rat, liver microsomes","10 µM, 0 min",,remaining compound,> 98%
